Measurements pooled from the literature.
Compare with care: the assays were run in different laboratories. “And” joins repeats or separate records; there may be more than shown.
FGFR2: Fibroblast growth factor receptor 2 (FGFR2, Homo sapiens, UniProt P21802)
FGFR2 N549H: Fibroblast growth factor receptor 2 (FGFR2, Homo sapiens, UniProt P21802, N549H)

CCN1CCN(Cc2ccc(C(=O)Nc3ccc(C)c(NCc4cnc5[nH]ccc5c4OC)c3)cc2C(F)(F)F)CC1 gave a remaining binding of 12% (FGFR2; binding, competition with immobilised ligand; 1 µM).
Under “activity vs control”, CNC(=O)C[C@H](Cc1ccc(C#N)cc1)NC(=O)c1cc(-c2ccc(CN[C@H](C)c3ccc(C)cc3)o2)ccc1Cl is recorded as 102% (FGFR2; enzyme activity, inhibitor; 1 µM).
CCn1cc(C(=O)O)c(=O)c2c(N)c(F)c(NC3CCCCC3)cc21 gave an inhibition of 2.6% (FGFR2; kinase activity; 0.1 µM, together with: ATP at Km).
CC(=O)N1c2ccc(-c3ccc(CNC(=O)c4cn5cc(-c6cnc(N)nc6)nc(N6CCOCC6)c5n4)cc3)cc2CC[C@@H]1C gave a remaining binding of 96% (FGFR2; KINOMEscan; 10 µM).
With COc1cc(Nc2nccc(-c3cnn4nc(OC)ccc34)n2)cc(C(F)(F)F)c1 the remaining binding was 100% (FGFR2; binding, competition with immobilised ligand; 1 µM).
The inhibition of NC(=O)[C@@H](O)C[C@H]1CCc2sc3ncnc(O[C@H]4CC[C@H](N5CCOCC5)CC4)c3c21 is reported as 33% (FGFR2; enzyme activity, inhibitor; 10 µM).
The remaining activity of COCC12C(=O)NC3C4(C(OC)CC1O)C1CC5(O)C(OC)C(O)C(OC(C)=O)(C1C5OC(=O)c1ccccc1)C3(O)C(OC)C24 (stereo not drawn) is reported as 119% and 116% (FGFR2; kinase activity, inhibitor, ProQinase kinase profiling; 25 µM; reference: control).
COc1c(Cl)cccc1Nc1c(-c2ccncc2C#C[C@@]2(C)CCCN2C(=O)/C=C/CN(C)C)[nH]c2c1C(=O)NCC2 has a remaining binding of 100% (FGFR2; cell-free assay, competition with immobilised ligand; 3 µM).
The remaining binding of CNC(=O)C1CCN(c2cc(C)c(F)cc2NC(=O)c2ccc(-c3cc(O)ccc3C)c(C)c2)CC1 is reported as 71% (FGFR2; binding, competition with immobilised ligand; 1 µM).
Cc1nc2c(F)cc(-c3nc(Nc4ccc(CNC(=O)CCCCCCC(=O)NO)cc4)ncc3F)cc2n1C(C)C gave an inhibition of 73% (FGFR2 N549H; enzyme activity, inhibitor; 1 µM).
For C=C1CCCCCCCCCC(CO)C1=O (stereo not drawn), the remaining signal was 100% (FGFR2; cell-free assay; 10 µM).
The remaining activity of COc1ccc(NC(=O)Nc2ccc3c(c2)C(=O)N(C(C)CO)CC(C)C(CN(C)Cc2ccc4c(c2)OCO4)O3)cc1 (stereo not drawn) is reported as 101% (FGFR2; kinase activity; 0.03 µM; reference: control).
Cc1cnc2nc1Nc1cccc(c1)COC/C=C/COCc1cc(ccc1OCCN1CCOCC1)N2 gave a remaining binding of 79% (FGFR2; binding; 0.1 µM).
The inhibition of Cc1[nH]nc2c1N=C(c1ccccc1Cl)c1cnc(N3CCOCC3)cc1N2 is reported as over 99% (FGFR2; enzyme activity, inhibitor; 0.5 µM).
The remaining binding of CN1CCN(Cc2ccc(NC(=O)c3cccc(C#Cc4cnc(N)c5ncccc45)c3)cc2C(F)(F)F)CC1 is reported as 7.2% (FGFR2; cell-free assay, competition with immobilised ligand; 50 nM).
Nc1ncc(-c2cc(-c3cnn(CC(F)(F)F)c3)ncc2F)nc1C(=O)NC1CNCC(F)C1 (stereo not drawn) has a remaining activity of 94% (FGFR2; enzyme activity; 1 µM; reference: DMSO control).
With O=C=[N][Ru-4]123([n]4c5ccc(O)cc5c5c6c(c7cc(F)c[n+]1c7c54)C(=O)NC6=O)[S+]1CC[S+]2CC[S+]3CC1 (stereo not drawn) the remaining activity was 102% (FGFR2 N549H; enzyme activity; 100 nM, human enzyme, together with: 10 µM ATP; reference: untreated).
The inhibition of C=CC(=O)Nc1cccc(-c2cnc3[nH]cc(C(=O)NC(C)(C)C)c3n2)c1 is reported as 41% and 39% (FGFR2; kinase activity; 0.1 µM).
With Cc1cccc(O[C@H]2CCC[C@@H](C(C)CNCc3ccncc3)C2)c1 (relative stereo) the inhibition was -2% (FGFR2; cell-free assay; 10 µM).
For CCN1CCN(Cc2ccc(NC(=O)c3ccc(C)c(NC(=O)c4cncc(-c5cccs5)c4)c3)cc2C(F)(F)F)CC1, the remaining binding was 27% (FGFR2; binding, competition with immobilised ligand; 1 µM).
C=CC(=O)N1Cc2nc(-c3cc(-c4cc(Cl)cnc4Cl)c(F)cc3F)n(-c3ccncn3)c2C1 has an inhibition of -5% (FGFR2; cell-free assay; 1 µM).

A few entries again:
Under “activity vs control”, CNC(=O)C[C@H](Cc1ccc(C#N)cc1)NC(=O)c1cc(-c2ccc(CN[C@H](C)c3ccc(C)cc3)o2)ccc1Cl is recorded as 102% (FGFR2; enzyme activity, inhibitor; 1 µM).
CCn1cc(C(=O)O)c(=O)c2c(N)c(F)c(NC3CCCCC3)cc21 gave an inhibition of 2.6% (FGFR2; kinase activity; 0.1 µM, together with: ATP at Km).
